Measurements from different studies.
Parts stem from different laboratories: compare values within a part only.

Block 1
Target: Ras GTPase-activating protein-binding protein 1, full length (G3BP1, Homo sapiens, UniProt Q13283)
Sequence of UniProt Q13283 (whole entry, looked up): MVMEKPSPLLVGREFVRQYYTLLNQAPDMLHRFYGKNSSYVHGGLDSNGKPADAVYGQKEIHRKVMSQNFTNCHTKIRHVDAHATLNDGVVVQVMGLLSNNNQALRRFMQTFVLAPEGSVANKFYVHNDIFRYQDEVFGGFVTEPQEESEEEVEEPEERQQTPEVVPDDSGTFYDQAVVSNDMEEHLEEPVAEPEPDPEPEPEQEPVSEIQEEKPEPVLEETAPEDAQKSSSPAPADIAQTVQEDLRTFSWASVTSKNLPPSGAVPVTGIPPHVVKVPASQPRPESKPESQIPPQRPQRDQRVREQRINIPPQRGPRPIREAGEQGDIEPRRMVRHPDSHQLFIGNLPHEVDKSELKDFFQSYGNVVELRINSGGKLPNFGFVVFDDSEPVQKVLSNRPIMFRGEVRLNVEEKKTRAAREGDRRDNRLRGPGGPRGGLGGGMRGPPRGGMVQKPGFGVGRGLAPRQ
Technique: RNA Bind-n-Seq
Form: RNA
Matrix: in vitro
Tested at: 200 nM
Notes: whole 134-nt RNA, ends assumed
Together with: 150 mM KCl
Reference: input library
Reading: higher = stronger binding
`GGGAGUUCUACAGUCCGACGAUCUGGCCCUGGUGGCAUGCGGGGAGGAAGAGGUGGCCUCAUGGAUCGUGGUGGUCCCGGUGGAAUGUUCAGAGGUGGCCGUGGUGGGGACAGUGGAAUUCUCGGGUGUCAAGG` gave a log2 enrichment of 0.313.
`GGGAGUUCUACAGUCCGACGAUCACCAUGCAGGUGGGCAUCUUUGGGAAGUGGGGGAAGGGGGGGAUAGGGAGGGGGGUAACACUUUGGGAACAGGUGGUCCCAGGUCGUUUCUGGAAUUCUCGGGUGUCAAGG` has a log2 enrichment of 1.47.
`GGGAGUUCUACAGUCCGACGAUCCAAGUCCUGUGCUACACAUCGUAUGUACCGAAUCGGGGAGGGGAGGGGAAAGGGGAAAGUAUUAUGUUACGCCGUUCGGAUCUGCACUUCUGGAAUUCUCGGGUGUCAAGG` gave a log2 enrichment of 1.4.
`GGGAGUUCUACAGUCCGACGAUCCACAGACAACACGCACCCACACAGACACAGAGGGAAGGGGUUGGGAUGGGGACAGGGUGCACAGUAGGGCGGGGUAGGACCCCAGCCCCUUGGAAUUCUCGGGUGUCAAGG` has a log2 enrichment of 1.76.
`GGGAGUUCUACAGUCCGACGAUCAGAUGAACAAGAGAACUGGGCAACCCAUGAUCCACAUCUACCUGGACAAGGAAACAGGAAAGCCCAAAGGCGAUGCCACAGUGUCCUAUGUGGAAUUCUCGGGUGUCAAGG` has a log2 enrichment of -1.5.
The log2 enrichment of `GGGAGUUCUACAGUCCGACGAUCGUCCUGUGCUACACAUCGUAUGUACCGAAUCGGGCCCCCGGCCCCCGGGCCCCCGGGGAAAGUAUUAUGUUACGCCGUUCGGAUCUGCACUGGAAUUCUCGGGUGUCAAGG` is reported as -0.675.
For `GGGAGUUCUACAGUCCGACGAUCACCAUGCAGGUGGGCAUCUUUGGGAAGUGGGGUAAGGGGGGGAUAGGGAGGGGGGUAACACUUUGGGAACAGGUGGUCCCAGGUCGUUUCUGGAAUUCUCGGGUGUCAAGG`, the log2 enrichment was 1.46.
For `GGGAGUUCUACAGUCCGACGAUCUUCCUCAAGUCCUGUGCUACACAUCGUAUGUACCGAAUCGGAGGAGGUGGAAAGUAUUAUGUUACGCCGUUCGGAUCUGCACUUCCAGCAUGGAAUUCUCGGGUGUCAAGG`, the log2 enrichment was -0.914.
`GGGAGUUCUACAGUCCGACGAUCCCUCAAGUCCUGUGCUACACAUCGUAUGUACCGAAUCGGGUGGGAGGGUGGGAAAGUAUUAUGUUACGCCGUUCGGAUCUGCACUUCCAGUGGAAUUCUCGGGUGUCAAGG` has a log2 enrichment of 0.349.

Block 2
Target: Sal-like protein 4, full length isoform A (SALL4, Homo sapiens, UniProt Q9UJQ4, residues 1-1053)
Sequence of UniProt Q9UJQ4 (whole entry, looked up): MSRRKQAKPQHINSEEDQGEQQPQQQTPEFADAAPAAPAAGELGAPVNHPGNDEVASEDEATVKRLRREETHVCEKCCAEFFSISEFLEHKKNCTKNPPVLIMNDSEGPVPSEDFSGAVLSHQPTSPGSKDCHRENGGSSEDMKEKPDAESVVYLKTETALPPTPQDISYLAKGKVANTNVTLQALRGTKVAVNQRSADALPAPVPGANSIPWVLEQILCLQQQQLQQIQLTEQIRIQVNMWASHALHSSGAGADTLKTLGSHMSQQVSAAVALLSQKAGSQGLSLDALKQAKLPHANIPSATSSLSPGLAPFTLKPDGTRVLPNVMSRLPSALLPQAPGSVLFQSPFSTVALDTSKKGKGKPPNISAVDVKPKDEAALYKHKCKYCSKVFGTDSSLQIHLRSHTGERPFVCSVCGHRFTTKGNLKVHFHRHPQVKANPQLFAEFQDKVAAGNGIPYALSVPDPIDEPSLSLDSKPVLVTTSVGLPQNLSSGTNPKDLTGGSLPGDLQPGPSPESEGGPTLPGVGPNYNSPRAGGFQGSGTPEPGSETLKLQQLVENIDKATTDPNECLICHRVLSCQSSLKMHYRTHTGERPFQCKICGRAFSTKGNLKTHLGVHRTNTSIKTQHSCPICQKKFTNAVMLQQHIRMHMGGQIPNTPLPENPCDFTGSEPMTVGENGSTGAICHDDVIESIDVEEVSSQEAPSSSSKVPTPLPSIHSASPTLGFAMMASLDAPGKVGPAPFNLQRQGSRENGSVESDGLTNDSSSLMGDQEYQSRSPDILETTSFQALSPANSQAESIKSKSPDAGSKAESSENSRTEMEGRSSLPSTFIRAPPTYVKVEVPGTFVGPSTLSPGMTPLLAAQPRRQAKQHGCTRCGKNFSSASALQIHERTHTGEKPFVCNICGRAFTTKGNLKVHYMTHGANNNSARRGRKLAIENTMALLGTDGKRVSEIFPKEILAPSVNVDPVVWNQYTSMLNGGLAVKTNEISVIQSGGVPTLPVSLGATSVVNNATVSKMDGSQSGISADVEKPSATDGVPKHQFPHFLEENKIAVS
Technique: universal PBM
Form: double-stranded DNA, one strand shown
Matrix: in vitro
Tested at: 600 nM
Notes: 8-mer, flanks averaged, mean of replicates
Reading: higher = stronger binding
The E-score of `GTCTAGTA` is reported as 0.117.
The E-score of `ATAAATTG` is reported as 0.389.
`CTACCTTC` gave an E-score of 0.09.
The E-score of `AGGCTCTC` is reported as -0.172.
`CGGTTACG` gave an E-score of -0.161.
`CCTCCTAA` has an E-score of 0.0197.
With `CGCTTGAA` the E-score was 0.107.
`CAGCGGGA` has an E-score of -0.293.
The E-score of `ATAGCTCA` is reported as 0.101.
With `ACATTTGG` the E-score was -0.0162.
The E-score of `AGGAATCC` is reported as -0.117.
`ACCTGATC` gave an E-score of -0.011.
`TAGTACCA` has an E-score of 0.00833.
For `AAAGGGAA`, the E-score was 0.108.
The E-score of `AAACAGGG` is reported as -0.0817.
For `AATGGATA`, the E-score was 0.112.
`CGGATTAC` gave an E-score of -0.0347.
`AGGATAAA` gave an E-score of 0.231.
`AGTAGAGG` gave an E-score of -0.196.
The E-score of `ATCTAGAG` is reported as 0.0312.
With `GTACCTTA` the E-score was 0.112.

Block 3
Target: RNA binding protein fox-1 homolog 2, RRM domain, GST-SBP tag (RBFOX2, Homo sapiens, UniProt O43251-10, residues 100-194)
Technique: RNA Bind-n-Seq
Form: RNA
Matrix: in vitro
Tested at: 365 nM
Notes: natural RNA segment, single round, ends assumed
Reference: no-protein control
Reading: higher = stronger binding
Construct (chain): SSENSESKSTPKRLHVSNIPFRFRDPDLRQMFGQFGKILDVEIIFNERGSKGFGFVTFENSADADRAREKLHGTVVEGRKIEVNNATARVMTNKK
`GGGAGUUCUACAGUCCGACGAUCAUUUUUAAACAUAACACCUAACCUAACAUGGGUAAGAGAGUAUGGAACUAGAUAUGAGCUGUAUAAGAAGCAUAAUUGUGAACAAGUAGAUUGAUUGCCUUCAUAUACAAUGGAAUUCUCGGGUGCCAA` — result for “RBNS enrichment (R)”: 0.368.
`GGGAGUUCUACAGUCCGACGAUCCACCUGCAGAGGUGCCCAUCAGGGCGAGUUCUCAGGUGUCUGUUGCUGUGCCAUGGGGGCCUUCUUCCUGGCCCUGUGCCCCUCAAGCAGGCUCUGCCCACCCACCCUCCUGGAAUUCUCGGGUGCCAA` — result for “RBNS enrichment (R)”: 0.289.
For `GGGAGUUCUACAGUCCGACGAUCAAAUUAUAGUUUGUCUUUUGUCUUAACAGUUCUGAAUGCUGUCCUCAAAGUAUAUAAUGUUUCAUGUACCAAGACCCUUUUCACAGUACAAUAAACAGAUCUAUUCAUAAUGGAAUUCUCGGGUGCCAA`, “RBNS enrichment (R)” read 0.373.
`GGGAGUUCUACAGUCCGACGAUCGAUGUCCCUCCAGCCUCCUCCCCCUCCUCUGCUGGCUCUGGCAACAGAUCCUGGGAUAUGGUAAUUGUUUGGAUUUUCUUUCUUUCUGCAGUUGUGUGUGAAGAACAGGCUGGAAUUCUCGGGUGCCAA` — result for “RBNS enrichment (R)”: 0.416.
`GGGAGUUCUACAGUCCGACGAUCCACUUAAAGUCUUCAGCCCAGCUACUUCCCUAUUUUUGUGGGGAGAAGAGGGCCUGAUUAGAACUGUUCUGGUUGUGUUUGGCGGGAGGGGAAUAAUUUUUGUUCAGUCCUGGAAUUCUCGGGUGCCAA` — result for “RBNS enrichment (R)”: 0.31.
For `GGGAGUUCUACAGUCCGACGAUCAAAAGUUGCCAUUUCAACUACGUCCCAACAUUCCCUAAUAGGGUAUUCAGGGAACCUGUCUUAAAUUGUGCUUAUCUAAAUCUUGGAACUUUGAGCUAGGGGAGGAGAAUUGGAAUUCUCGGGUGCCAA`, “RBNS enrichment (R)” read 0.368.
For `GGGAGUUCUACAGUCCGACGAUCGUGGAGUUGGGUUUGGAAGCUGGUGCCCAGUUGGUGUGGAGUGUGUAGUUUUGUUAUGAAAGUUCUCUACCACCUACCUGUGUGAGUGACACCAACAUCCAGAUGUCACAUGGAAUUCUCGGGUGCCAA`, “RBNS enrichment (R)” read 0.928.
`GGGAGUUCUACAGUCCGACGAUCUAUAAGCACAAAUGUAUGUAAAGUGCCUGGCACAAAGUAGGUGCUCAAUAAAUGGUAGCUAUUAUAAACUAUUUCUUGUUUUAUUGAUUAAAAACAAGGAUCCUUCUAGAUGGAAUUCUCGGGUGCCAA` — result for “RBNS enrichment (R)”: 1.31.

Block 4
Target: Interferon regulatory factor 3, full length, phosphomimetic (IRF3, Homo sapiens, UniProt Q14653, residues 1-427, S386D/S396D/S398D/S402D/T404D/S405D)
Technique: protein-binding microarray
Form: double-stranded DNA, one strand shown
Matrix: in vitro
Tested at: 2540 nM top
Notes: 60-bp whole probe
Together with: salmon DNA 0.4 mg/ml
Reference: random background probes
Reading: higher = stronger binding
Constant ends, left off below: GCCTAGCAC … GTCTTGATTCGCTTGACGCTGCTG
Target sequence (chain): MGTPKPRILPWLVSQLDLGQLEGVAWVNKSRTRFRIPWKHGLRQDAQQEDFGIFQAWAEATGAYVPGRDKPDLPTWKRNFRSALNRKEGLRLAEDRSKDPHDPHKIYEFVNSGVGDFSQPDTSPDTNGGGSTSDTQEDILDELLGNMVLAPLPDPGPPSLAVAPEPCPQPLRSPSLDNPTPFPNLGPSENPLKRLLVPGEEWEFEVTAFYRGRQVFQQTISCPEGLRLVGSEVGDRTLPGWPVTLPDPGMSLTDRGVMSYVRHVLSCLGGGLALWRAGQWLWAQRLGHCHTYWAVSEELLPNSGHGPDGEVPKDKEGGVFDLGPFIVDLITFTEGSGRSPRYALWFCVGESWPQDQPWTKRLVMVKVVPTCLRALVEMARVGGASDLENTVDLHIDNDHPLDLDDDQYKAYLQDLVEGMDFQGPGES
`GTGTTTTTCTCCTATTTAAGAGTGCTA`: “fitted relative affinity” 2.47 z-score.
For `TCAGATATCAGTTTCGATTAGTGCTAG`, “fitted relative affinity” read 4.74 z-score.
`TTAGATATGGGGTTTCGATTAGTGCTA`: “fitted relative affinity” 1.45 z-score.
`TCATGCCTATTTTTCCCACTGTGCTAG` — result for “fitted relative affinity”: 0.448 z-score.
Under “fitted relative affinity”, `TTGGATTTCGGGTATCGATTAGTGCTA` is recorded as 0.961 z-score.
`GACGGTTCCCTTTTCATGACGTGCTAG` — result for “fitted relative affinity”: 6.05 z-score.
`GACGGTTTCGGATCCGGGACGTGCTAG`: “fitted relative affinity” 7.49 z-score.
`CAGCCTCTGCATTCCCTCAGGTGCTAG`: “fitted relative affinity” -0.31 z-score.
`TCAGTTTTTGCTTTCCTACTGTGCTAG`: “fitted relative affinity” 3.26 z-score.
`TTAGGCCTGCTTATCCTTTAGTGCTAG`: “fitted relative affinity” -0.396 z-score.
`TCAGATTTCGATTACAAACTGTGCTAG` — result for “fitted relative affinity”: 2.79 z-score.
For `CTAGGTATCGGGTATCGGTTAGTGCTA`, “fitted relative affinity” read 2.06 z-score.
For `TTAGGTCTCGGGTTCGGTTAGTGCTAG`, “fitted relative affinity” read 0.177 z-score.
Under “fitted relative affinity”, `GAATCTCTCATGTTACATTTGTGCTAG` is recorded as 0.649 z-score.
For `GACGGTTCCCTTGTCCTGACGTGCTAG`, “fitted relative affinity” read 2.11 z-score.
`TTAGGTCTCGGACTGGGATAGTGCTAG`: “fitted relative affinity” -0.175 z-score.
For `GACGATATCGGGTTTCCAGACGTGCTA`, “fitted relative affinity” read 1.8 z-score.
For `GACGGACCGGGGTTTCGGGACGTGCTA`, “fitted relative affinity” read 0.782 z-score.
For `TTAGTTCTCGGTATCGGTTAGTGCTAG`, “fitted relative affinity” read 2.47 z-score.

Single results of other studies
`GSPLAKAFTSTGL` gave an enrichment score of 0.253 (human cyclin A2; peptide binding, competitive growth sequencing; peptide, Saccharomyces cerevisiae, cyclin A2-Cln2 fusion strain; mutational scanning library 1; direction not given).

Some of these lines once more (block 4):
`TTAGGTCTCGGACTGGGATAGTGCTAG`: “fitted relative affinity” -0.175 z-score.
For `TCAGATATCAGTTTCGATTAGTGCTAG`, “fitted relative affinity” read 4.74 z-score.
Under “fitted relative affinity”, `GAATCTCTCATGTTACATTTGTGCTAG` is recorded as 0.649 z-score.
`TTAGGCCTGCTTATCCTTTAGTGCTAG`: “fitted relative affinity” -0.396 z-score.
`TCAGTTTTTGCTTTCCTACTGTGCTAG`: “fitted relative affinity” 3.26 z-score.
`GACGGTTCCCTTTTCATGACGTGCTAG` — result for “fitted relative affinity”: 6.05 z-score.
